# Measured values of several laboratories.
# Protocols differ between the studies behind these lines. “And” joins repeats or separate records; there may be more than shown.
Substance,tested on,assay,system,conditions,how to read,quantity,value
colistin,Pseudomonas aeruginosa,broth microdilution,clinical isolate RKI-No_693/15,,,MIC,1 µg/mL
Polymyxin B,Staphylococcus aureus,DiSC3(5) fluorescence,,"concentration not given, 60 min",higher = more depolarisation,membrane depolarisation,569 a.u. and 708 a.u. and 509 a.u.
LVHYTHCGSLGV,Epstein-Barr virus,BamHI-W qPCR,"peptide, B-NDG humanized mouse, EBV-infected, peripheral blood","20 mg/kg, day 0",,EBV DNA copy number,0 copies
CTCATTGTCT,Salmonella enterica Typhimurium,"RNA-seq, refers to: fadL mRNA","peptide, SL1344","5 µM, 15 min",reference: water control,log2 fold change,-1.45
milbemycin oxime,Saccharomyces cerevisiae,cell growth,"Pdr5 deleted, Cdr1 overexpressed",2^-6.644 µg/mL,,OD600,0.989 and 0.997 and 0.987
colistin,Escherichia coli,tetracycline activity,tetracycline-resistant,"0.03125 µM, with: tetracycline",reference: tetracycline alone,fold enhancement,4 fold
PKRSFIESNV,human SCRIB PDZ3-4 tandem (MBP fusion),surface plasmon resonance,peptide,concentration not given,higher = stronger binding,normalised SPR binding response,214 normalised RU
maraviroc,HIV-1 ADA,"viral replication, qPCR","HIV-infected mice, brain","ip, 120 mg/kg twice daily, 3 weeks post-infection, normalized to CD45+ cells",reference: untreated HIV-infected mice,HIV-1 LTR decrease,52 fold
gentamicin,Escherichia coli,time-kill,,"1 x MIC, 0 min",,viable count,6.5 log CFU/mL
TCACTATCTC,Salmonella enterica Typhimurium,"RNA-seq, refers to: SL1344_3728 transcript","peptide, SL1344","5 µM, 15 min",reference: untreated control,log2 fold change,2.59
GSGAGRETEV,human MAGI1-2/6 PDZ construct (MBP fusion),surface plasmon resonance,peptide,concentration not given,higher = stronger binding,normalised SPR binding response,14.1 normalised RU
Peginesatide,UT7/EPO,"tyrosine phosphorylation, LC-MS/MS phosphoproteomics, GluC, refers to: KLF5 tyrosine 95",,"10 nM, 15 min, with: 10 U/mL EPO",reference: vehicle,phosphorylation level,21.8 fold
CTCATACTGA,Salmonella enterica Typhimurium,"RNA-seq, refers to: fabF mRNA","peptide, SL1344","5 µM, 15 min",reference: water control,log2 fold change,-1.91

# Excerpt of the above:
Substance,tested on,assay,system,conditions,how to read,quantity,value
Polymyxin B,Staphylococcus aureus,DiSC3(5) fluorescence,,"concentration not given, 60 min",higher = more depolarisation,membrane depolarisation,569 a.u. and 708 a.u. and 509 a.u.
LVHYTHCGSLGV,Epstein-Barr virus,BamHI-W qPCR,"peptide, B-NDG humanized mouse, EBV-infected, peripheral blood","20 mg/kg, day 0",,EBV DNA copy number,0 copies
